Experimental data pooled from the literature.
Lines come from different studies, so protocols differ. Several values in a cell are separate wells, animals, samples, runs or records. ± gives the spread as reported.

SMILES	assay	test system	conditions	scale	endpoint	value
Cc1cc(C)c(CNC(=O)c2cc(Cl)c3c(c2C)O[C@@](C)([C@H]2CC[C@H](N(C)C)CC2)O3)c(=O)[nH]1		relapsed/refractory B-NHL patients	dose not given, IWG 2007 criteria		objective response rate (CR or PR)	47%
COc1nnc2ccc(N3CCC(c4ccc(OCCN5CCN(C)C(=O)[C@H]5C)cc4)CC3)nn12		cancer patients, plasma	2 to 40 mg	baseline: predose	plasma MMP-3 level	decreased
C[C@H](NC(=O)c1c(C(F)F)nn(C)c1Oc1cccc(C(F)(F)F)c1)c1ccc(C(=O)O)cc1		human, advanced tumours	250 mg, irRECIST		complete response	0%
N#CCC1CCN(c2nc(Nc3ccc(N4CCC(O)CC4)cc3)c3c(=O)[nH]ncc3n2)CC1	Olink multiplex	human, serum	80 mg, day 15, unit not given	baseline: baseline	osteopontin level change	-1.26
OC[C@H]1O[C@@H](c2ccc(Cl)c(Cc3ccc(O[C@H]4CCOC4)cc3)c2)[C@H](O)[C@@H](O)[C@@H]1O		Japanese type 1 diabetes patients	2.5 mg, day 7, 168 h	baseline: baseline	systolic blood pressure change	2 mmHg
Cc1c(Cl)c(C)[n+]([O-])c(Cl)c1-c1noc(-c2cc(O)c(O)c([N+](=O)[O-])c2)n1	glucuronidation, substrate	human intestinal microsomes			Vmax	111 ± 44.5 pmol/min/mg protein
CN(C)C(=O)c1cc2cnc(Nc3ccc(N4CCNCC4)cn3)nc2n1C1CCCC1	RNA-seq GSEA, item: HALLMARK_MYC_TARGETS gene set	MB002 tumour	concentration not given	baseline: vehicle, direction not given	normalized enrichment score	2.54
O=P(O)(O)C(Cl)(Cl)P(=O)(O)O		Mus musculus, sham-operated, hippocampal fissure	concentration not given, day 1	baseline: total area	GFAP-positive area	4.26% and 3.29% and 3.15%
CCN(Cc1nc2c(N)nc3cc(-c4cc[nH]n4)ccc3c2[nH]1)C(C)=O	RECIST v1.1	advanced solid tumour patients	dose not given, monotherapy arm		objective response rate	0%
Cc1n[nH]c2ccc(-c3cc(OC[C@@H](N)Cc4ccccc4)cnc3-c3ccoc3)cc12	kinase binding, competitor, MIB/MS competition, item: RIO2	Candida albicans cell lysate	1 µM	baseline: DMSO	log2 fold change	-0.263
[Cl-].[Cl-].[Pt+2].[Ru+2].c1ccc(-c2nccnc2-c2ccccn2)nc1.c1cnc2c(c1)ccc1cccnc12.c1cnc2c(c1)ccc1cccnc12	chloride substitution, UV-vis kinetics	aqueous buffer	pH 7.2, 35 °C, second substitution step, added: thiourea		activation free energy	20.3 ± 1.2 kcal/mol
N#Cc1ccc2c(c1)[C@H]1CCCN(C(=O)c3ccc4[nH]cnc4c3)[C@H]1C2		human, plasma	360 mg, day 15	baseline: baseline, placebo-corrected	change in 1,5-anhydroglucitol	-17.7%
CC(=O)Oc1cc2c(s1)CCN(C(C(=O)C1CC1)c1ccccc1F)C2 (centres unmarked)	platelet aggregation, light transmission aggregometry	human patients, platelet-rich plasma	dose not given, 2 h, added: TRAP 15 µM		patients with IPA above 80%	0%
O=C(NS(=O)(=O)c1ccccc1)c1cc2ccccc2n1Cc1ccc(C2CC2)c2ccccc12		mouse, acute hyperuricaemia model, serum	oral, 2 mg/kg	baseline: vehicle model	serum uric acid decrease	95.9%
CC[C@@H]1[C@H](F)C(=O)N[C@@H]1COc1nccc2cc(C(N)=O)c(OC)cc12	ATP-site probe binding, ActivX profiling, item: PCTAIRE1, PCTAIRE3	THP-1 cell lysate	0.2 mM, Lys2 site		inhibition	-0.8%
N#CC[C@H](C1CCCC1)n1cc(-c2ncnc3[nH]ccc23)cn1	phosphoflow cytometry, item: pSTAT5	patients, patient plasma	dose not given, C1D15 steady-state trough		median inhibition	46.3%
OC(CCN1CCCCC1)(c1ccccc1)C1CC2C=CC1C2 (centres unmarked)	resting-state EEG	healthy elderly humans	oral, 4 mg, eyes closed, LS mean		power, Delta EEG, Pz-O1	9.1 µV²
CCc1c(C)nc(-c2ccc(Cl)s2)nc1Nc1ccc(CC(=O)O)cc1	Sirius red staining	C57BL/6J mouse, MCD diet MASH model, liver	intraperitoneal, 0.3 mg/kg daily, MCD diet 6 weeks, dosed final two weeks	baseline: untreated	collagen content	decreased
COc1cc(Nc2ncc3c(n2)-c2ccc(Cl)cc2C(c2c(F)cccc2OC)=NC3)ccc1C(=O)O		mouse, NB-1771 neuroblastoma xenograft	5.2 mg/kg	direction not given	median response score	2

SMILES	assay	test system	conditions	scale	endpoint	value
NC(=O)c1cnc2[nH]ccc2c1N[C@@H]1[C@@H]2CC3C[C@H]1C[C@@](O)(C3)C2	CD4+ central memory T cells, flow cytometry	Japanese humans, peripheral blood	60 mg single dose	baseline: baseline	percent change	0.17%
COc1ccc(F)cc1C(=O)NCc1ccc(-c2nn([C@@H](C)C(F)(F)F)c(N)c2C(N)=O)cc1		CLL/SLL patients	dose not given, prior chemo, CD20, BTK, BCL2 agents		overall response rate	69%
N=C(N)NCCC[C@H](NC(=O)[C@H](CCCNC(=N)N)NC(=O)[C@H](CCCCN)NC(=O)[C@H](CCC(N)=O)NC(=O)[C@H](CCCCN)NC(=O)[C@H](Cc1ccc(O)cc1)NC(=O)[C@@H](N)CCCCN)C(=O)N[C@@H](CO)C(=O)N[C@@H](Cc1ccc(O)cc1)C(=O)N[C@@H](CCCCN)C(=O)O		dentin hypersensitivity patients	5 µg/tooth, day 36 post-study visit, two teeth per subject	direction not given	VAS score	55.7 ± 33.4
CN(C(=O)n1cnc(-c2ccc[n+]([O-])c2)c1)C1CCCCC1		mice, formalin paw test	oral, 3 mg/kg, late phase	direction not given	licking time score	10.9
O=C1Nc2ccccc2C1=Cc1ccccn1	antithrombotic activity	rat carotid FeCl3 thrombosis	oral		ED50	7.3 mg/kg
O=C(NS(=O)(=O)C1CC1)c1cc2ccccc2n1Cc1ccc(Br)c2ccccc12		mouse, acute hyperuricemia model	dose not given		serum uric acid	940 µM and 1120 µM and 1080 µM
COc1ccc([C@@H](O)c2cc(-c3ncnc4cc(N5CCOCC5)ccc34)c(F)cc2Cl)nn1	RECIST version 1.1	patients, advanced solid tumours	200 mg twice daily, added: avelumab	baseline: patients	objective response rate	0%
O=C(NS(=O)(=O)c1cc(F)cc(F)c1)c1cc2ccccc2n1Cc1ccc(Br)c2ccccc12		mouse, acute hyperuricemia model	dose not given		serum uric acid	589 µM and 618 µM and 452 µM and 708 µM and 476 µM
CC(C)NCC(O)c1ccc(O)c(O)c1 (centres unmarked)		ventricular cardiomyocytes, C57BL/6 mouse	dose not given, 0.384 s		sarcomere length	1.72 µm
[Cl-].[Cl-].[Pt+2].[Ru+2].c1ccc(-c2nc3cc4ccccc4cc3nc2-c2ccccn2)nc1.c1cnc2c(c1)ccc1cccnc12.c1cnc2c(c1)ccc1cccnc12			concentration not given, second substitution step, added: guanosine 5'-monophosphate		activation enthalpy	12.9 ± 0.956 kcal/mol
C[C@H](Oc1ccc(Br)cc1-c1ccon1)C(=O)O	muscle velocity recovery cycles	human, tibialis anterior muscle	400 mg twice daily	baseline: placebo	MVRC latency difference	0.253 ms
CC(C)C[C@H](NC(=O)[C@@H](Cc1c[nH]c2ccccc12)NC(=O)[C@H](Cc1ccc(O)cc1)NC(=O)[C@H](CO)NC(=O)[C@H](Cc1c[nH]c2ccccc12)NC(=O)[C@H](Cc1c[nH]cn1)NC(=O)[C@@H]1CCC(=O)N1)C(=O)N[C@@H](CCCNC(=N)N)C(=O)N1CCC[C@H]1C(=O)NCC(N)=O		Chinese children, central precocious puberty, serum	intramuscular, 22.5 mg day 1, month 6, month 9		basal FSH level	1.4 IU/L
N#Cc1ccc2c(-c3ccncc3)c(-c3ccc(F)cc3)nn2c1	kinase binding, competitor, MIB/MS competition, item: FPK1	Candida albicans cell lysate	10 µM	baseline: DMSO	log2 fold change	-0.134
C[C@H]1C[C@H]2CSC(N)=N[C@@]2(c2nc(NC(=O)c3ccc(OC(F)F)cn3)cs2)CO1		healthy adults, fed, plasma	oral, 200 mg single dose, 24 h	baseline: baseline, placebo-adjusted	plasma Aβx-40 change	-62.9%
Cc1cc(Nc2ncc(Cl)c(Nc3ccccc3S(=O)(=O)C(C)C)n2)c(OC(C)C)cc1C1CCNCC1		patients with advanced solid tumours	dose not given		median progression-free survival	4.8 months
C[C@@H](NC(=O)N1C(=O)[C@H](Cc2ccnc(N)c2)[C@H]1C(=O)O)C1CCCCC1		human	iv infusion, 1.0 mg/kg/h, 24 h, unit not given	baseline: baseline	ACT AUEC	144
Cn1cc(Nc2nc(N)nc(-c3cccc(-n4ccc5cc(C6CC6)cc(F)c5c4=O)c3CO)n2)cn1	CD63 upregulation, item: CD63	basophils (CD123+ HLA-DR-), healthy humans, whole blood ex vivo	150 mg twice daily (multiple dose), 336 h, added: anti-IgE		inhibition	67.6%
CC(=O)NCC(=O)NCC(=O)N[C@H](C(=O)N[C@@H](Cc1ccc(O)cc1)C(=O)N[C@@H](CO)C(=O)N[C@H]1CSSC[C@@H](C(=O)N[C@@H](CCCNC(=N)N)C(=O)N2CCC[C@H]2C(=O)N[C@@H](CCC(N)=O)C(=O)N[C@@H](CCCNC(=N)N)C(=O)NCC(=O)NCCC(=O)N[C@@H](CCCCNC(=O)CN(CC(=O)NCCCC[C@H](NC(=O)CCNC(=O)CNC(=O)[C@H](CCCNC(=N)N)NC(=O)[C@H](CCC(N)=O)NC(=O)[C@@H]2CCCN2C(=O)[C@H](CCCNC(=N)N)NC(=O)[C@@H]2CSSC[C@H](NC(=O)[C@H](CO)NC(=O)[C@H](Cc3ccc(O)cc3)NC(=O)[C@@H](NC(=O)CNC(=O)CNC(C)=O)[C@@H](C)O)C(=O)N[C@@H](Cc3c[nH]cn3)C(=O)N[C@@H](Cc3ccccc3)C(=O)NCC(=O)N[C@@H](C)C(=O)N[C@@H](CC(C)C)C(=O)N[C@@H]([C@@H](C)O)C(=O)N[C@@H](Cc3c[nH]c4ccccc34)C(=O)N[C@@H](C(C)C)C(=O)N2)C(N)=O)C(=O)CCN)C(N)=O)NC(=O)[C@H](C(C)C)NC(=O)[C@H](Cc2c[nH]c3ccccc23)NC(=O)[C@H]([C@@H](C)O)NC(=O)[C@H](CC(C)C)NC(=O)[C@H](C)NC(=O)CNC(=O)[C@H](Cc2ccccc2)NC(=O)[C@H](Cc2c[nH]cn2)NC1=O)[C@@H](C)O		healthy BALB/c mice	subcutaneous, 0.08 mg/kg, 14 d, single dose		haemoglobin	166 g/L
COc1cc2cc(-c3ccc(CC(=O)Nc4cc(C(C)(C)C(F)(F)F)no4)cn3)cnc2cc1OC	RECIST v1.1	RET-altered advanced solid tumour patients	oral, 40 mg once daily, phase I		disease control rate	67%

For quick reference, copied from above:
SMILES	assay	test system	conditions	scale	endpoint	value
COc1nnc2ccc(N3CCC(c4ccc(OCCN5CCN(C)C(=O)[C@H]5C)cc4)CC3)nn12		cancer patients, plasma	2 to 40 mg	baseline: predose	plasma MMP-3 level	decreased
C[C@H](NC(=O)c1c(C(F)F)nn(C)c1Oc1cccc(C(F)(F)F)c1)c1ccc(C(=O)O)cc1		human, advanced tumours	250 mg, irRECIST		complete response	0%
N#CCC1CCN(c2nc(Nc3ccc(N4CCC(O)CC4)cc3)c3c(=O)[nH]ncc3n2)CC1	Olink multiplex	human, serum	80 mg, day 15, unit not given	baseline: baseline	osteopontin level change	-1.26
OC[C@H]1O[C@@H](c2ccc(Cl)c(Cc3ccc(O[C@H]4CCOC4)cc3)c2)[C@H](O)[C@@H](O)[C@@H]1O		Japanese type 1 diabetes patients	2.5 mg, day 7, 168 h	baseline: baseline	systolic blood pressure change	2 mmHg
Cc1c(Cl)c(C)[n+]([O-])c(Cl)c1-c1noc(-c2cc(O)c(O)c([N+](=O)[O-])c2)n1	glucuronidation, substrate	human intestinal microsomes			Vmax	111 ± 44.5 pmol/min/mg protein
